Earlier results that unrelated publications cite.
Each line is one published result; not all experiments were run side by side.

| Compound | test system | setting | scale | measurement | result |
| --- | --- | --- | --- | --- | --- |
| CCCCCOC(=O)Nc1nc(=O)n([C@@H]2O[C@H](C)[C@@H](O)[C@H]2O)cc1F | human, plasma | concentration not given, total concentration | – | Cmax | 9700 nM |
| CO[C@H]1C[C@@H]2CC[C@@H](C)[C@@](O)(O2)C(=O)C(=O)N2CCCC[C@H]2C(=O)O[C@H]([C@H](C)C[C@@H]2CC[C@@H](OCCO)[C@H](OC)C2)CC(=O)[C@H](C)/C=C(\C)[C@@H](O)[C@@H](OC)C(=O)[C@H](C)C[C@H](C)/C=C/C=C/C=C/1C | human | 2 mg single dose, added: ketoconazole 200 mg twice daily | baseline: with over without ketoconazole | Cmax ratio | 3.9 fold |
| Cc1cc(-c2ccc(C(=O)[C@@H]3CCCC[C@H]3C(=O)Nc3cnn4c3C(=O)NCC4)cc2)n[nH]1 | human, non-Japanese | oral, 600 mg multiple doses, day 10, geometric mean | – | Cmax | 5690 nM |
| CN(C)C/C=C/C(=O)Nc1cc2c(Nc3ccc(F)c(Cl)c3)ncnc2cc1O[C@H]1CCOC1 | human, plasma | concentration not given, total concentration | – | Cmax | 78 nM |
| COc1cccc(-c2c(C)n(Cc3c(F)cccc3C(F)(F)F)c(=O)n(C[C@H](NCCCC(=O)O)c3ccccc3)c2=O)c1F | human | 150 mg single dose, added: rifampin 600 mg once daily, day 10 | baseline: with rifampin over alone | Cmax ratio | 2 |
| O=C(O)C[C@H](O)C[C@H](O)/C=C/c1c(C2CC2)nc2ccccc2c1-c1ccc(F)cc1 | human | – | baseline: OATP*15 heterozygous over non-carriers | Cmax ratio | 8 fold |
| COc1cccc(CCc2ccccc2OCC(CN(C)C)OC(=O)CCC(=O)O)c1 (racemic) | human | oral, 50 mg single dose as hydrochloride, geometric mean | – | Cmax | 269 ng/mL |
| CO[C@H]1O[C@H](COS(=O)(=O)O)[C@@H](O[C@@H]2O[C@@H](C(=O)O)[C@@H](O[C@H]3O[C@H](COS(=O)(=O)O)[C@@H](O[C@@H]4O[C@H](C(=O)O)[C@@H](O[C@H]5O[C@H](COS(=O)(=O)O)[C@@H](O)[C@H](O)[C@H]5NS(=O)(=O)O)[C@H](O)[C@H]4O)[C@H](OS(=O)(=O)O)[C@H]3NS(=O)(=O)O)[C@H](O)[C@H]2OS(=O)(=O)O)[C@H](O)[C@H]1NS(=O)(=O)O | human, plasma | concentration not given, total concentration | – | Cmax | 840 nM |
| CCCCC(CC)COC(=O)C=Cc1ccc(OC)cc1 (stereo not drawn) | human, plasma | topical, 2 mg/cm^2 to 75% body surface, day 1, sunscreen | – | Cmax geometric mean | 2 ng/mL |
| CCN1C(=O)N(c2c(F)c(OC)cc(OC)c2F)Cc2cnc3[nH]c(CN4CCOCC4)cc3c21 | human cancer patients | oral, 13.5 mg once daily, geometric mean | – | Cmax at steady state | 236 nM |
| CCCCC(CC)COC(=O)C(C#N)=C(c1ccccc1)c1ccccc1 (stereo not drawn) | human, plasma | topical, 4 times daily days 2-4, day 4, sunscreen | – | Cmax geometric mean | 7.8 ng/mL |
| CNCc1cc(-c2ccccc2F)n(S(=O)(=O)c2cccnc2)c1 | human | oral, single dose, NG, added: clarithromycin, multiple doses | baseline: with over without clarithromycin | Cmax ratio | ~1.35 fold |

A few entries again:
| Compound | test system | setting | scale | measurement | result |
| --- | --- | --- | --- | --- | --- |
| CO[C@H]1C[C@@H]2CC[C@@H](C)[C@@](O)(O2)C(=O)C(=O)N2CCCC[C@H]2C(=O)O[C@H]([C@H](C)C[C@@H]2CC[C@@H](OCCO)[C@H](OC)C2)CC(=O)[C@H](C)/C=C(\C)[C@@H](O)[C@@H](OC)C(=O)[C@H](C)C[C@H](C)/C=C/C=C/C=C/1C | human | 2 mg single dose, added: ketoconazole 200 mg twice daily | baseline: with over without ketoconazole | Cmax ratio | 3.9 fold |
